Assay results of several laboratories.
Every numbered part comes from another study and shows a few of its results, in no order. Numbers after ± are the reported error. Values after ≈ are worked out from the molar mass of the structure shown.
Chain of UniProt P32238 (whole entry, looked up): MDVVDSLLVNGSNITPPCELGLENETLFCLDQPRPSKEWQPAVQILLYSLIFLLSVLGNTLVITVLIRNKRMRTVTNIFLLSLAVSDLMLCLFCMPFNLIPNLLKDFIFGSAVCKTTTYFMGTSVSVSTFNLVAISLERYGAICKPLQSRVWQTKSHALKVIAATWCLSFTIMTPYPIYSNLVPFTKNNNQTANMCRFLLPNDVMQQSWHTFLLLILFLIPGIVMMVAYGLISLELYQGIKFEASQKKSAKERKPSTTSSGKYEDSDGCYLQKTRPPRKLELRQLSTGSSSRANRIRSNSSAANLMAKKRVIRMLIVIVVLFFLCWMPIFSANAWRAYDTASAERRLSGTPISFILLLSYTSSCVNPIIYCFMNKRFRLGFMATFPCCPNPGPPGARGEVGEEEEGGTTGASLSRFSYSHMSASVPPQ
Chain of UniProt P27338 (whole entry, looked up): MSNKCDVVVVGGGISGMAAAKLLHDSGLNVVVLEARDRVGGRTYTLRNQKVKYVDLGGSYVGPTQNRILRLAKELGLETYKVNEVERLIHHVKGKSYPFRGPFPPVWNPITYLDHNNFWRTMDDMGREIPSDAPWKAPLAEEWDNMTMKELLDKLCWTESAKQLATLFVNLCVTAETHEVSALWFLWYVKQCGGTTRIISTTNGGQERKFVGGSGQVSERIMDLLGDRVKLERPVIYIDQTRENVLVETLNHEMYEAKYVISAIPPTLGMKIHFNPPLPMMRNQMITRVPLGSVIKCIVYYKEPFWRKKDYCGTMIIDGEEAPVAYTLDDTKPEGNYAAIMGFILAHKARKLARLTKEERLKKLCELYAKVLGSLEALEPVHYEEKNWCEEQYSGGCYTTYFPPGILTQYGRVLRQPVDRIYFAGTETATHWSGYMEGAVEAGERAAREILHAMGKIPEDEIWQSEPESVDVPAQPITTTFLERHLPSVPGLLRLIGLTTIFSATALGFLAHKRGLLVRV
Chain of UniProt P30803 (whole entry, looked up): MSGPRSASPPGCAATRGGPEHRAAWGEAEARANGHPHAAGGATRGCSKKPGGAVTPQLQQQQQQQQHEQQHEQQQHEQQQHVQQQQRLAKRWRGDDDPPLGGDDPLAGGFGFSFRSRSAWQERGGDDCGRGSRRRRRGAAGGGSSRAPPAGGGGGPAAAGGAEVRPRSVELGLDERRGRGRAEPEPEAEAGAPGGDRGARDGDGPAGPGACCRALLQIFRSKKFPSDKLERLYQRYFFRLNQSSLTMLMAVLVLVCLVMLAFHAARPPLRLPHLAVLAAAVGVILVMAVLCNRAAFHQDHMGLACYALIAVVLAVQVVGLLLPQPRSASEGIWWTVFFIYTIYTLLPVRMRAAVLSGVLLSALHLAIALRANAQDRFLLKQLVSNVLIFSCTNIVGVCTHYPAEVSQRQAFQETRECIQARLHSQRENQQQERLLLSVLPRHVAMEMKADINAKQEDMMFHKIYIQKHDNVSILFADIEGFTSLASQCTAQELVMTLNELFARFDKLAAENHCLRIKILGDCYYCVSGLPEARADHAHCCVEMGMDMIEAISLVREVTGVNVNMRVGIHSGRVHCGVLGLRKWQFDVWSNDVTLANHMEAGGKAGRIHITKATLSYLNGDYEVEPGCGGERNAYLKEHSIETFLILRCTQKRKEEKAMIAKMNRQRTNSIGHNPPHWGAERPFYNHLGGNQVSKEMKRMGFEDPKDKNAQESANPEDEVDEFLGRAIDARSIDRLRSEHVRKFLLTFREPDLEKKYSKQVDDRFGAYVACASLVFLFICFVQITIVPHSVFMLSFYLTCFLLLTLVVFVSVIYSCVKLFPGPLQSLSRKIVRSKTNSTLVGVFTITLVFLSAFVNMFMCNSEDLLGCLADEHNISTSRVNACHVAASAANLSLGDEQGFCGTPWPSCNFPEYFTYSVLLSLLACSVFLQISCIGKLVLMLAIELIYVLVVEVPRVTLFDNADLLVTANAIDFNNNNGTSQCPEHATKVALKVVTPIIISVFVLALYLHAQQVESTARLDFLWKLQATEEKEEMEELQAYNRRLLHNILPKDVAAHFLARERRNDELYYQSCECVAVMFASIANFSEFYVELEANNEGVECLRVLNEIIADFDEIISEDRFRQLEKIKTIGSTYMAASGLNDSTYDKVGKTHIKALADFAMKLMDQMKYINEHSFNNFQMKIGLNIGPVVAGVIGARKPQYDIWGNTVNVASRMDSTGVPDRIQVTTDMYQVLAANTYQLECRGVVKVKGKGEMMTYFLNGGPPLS

Set 1
Structure (SMILES): CC[C@H](C)[C@H](NC(=O)[C@H](CC(C)C)NC(=O)[C@H](CCCCN)NC(=O)[C@@H](NC(=O)[C@H](C)NC(=O)[C@H](CCC(=O)O)NC(=O)[C@H](Cc1c[nH]cn1)NC(=O)[C@@H](NC(=O)[C@H](CCCCN)NC(=O)[C@H](CCC(N)=O)NC(=O)[C@H](Cc1ccccc1)NC(=O)[C@@H](NC(=O)[C@H](CCCCN)NC(=O)[C@H](CCCCN)NC(=O)[C@H](CC(C)C)NC(=O)[C@H](C)NC(=O)[C@H](CC(N)=O)NC(=O)[C@@H](N)CC(C)C)C(C)C)[C@@H](C)CC)[C@@H](C)CC)C(N)=O
Time: 18 h
Temperature: 37 °C
The MIC was 4 µM (≈ 8.42 µg/mL) (Pseudomonas aeruginosa; broth microdilution; ATCC 27853).
For Klebsiella pneumoniae; broth microdilution; ATCC 13883: MIC read 8 µM (≈ 16.8 µg/mL).
It gave 4 µM (≈ 8.42 µg/mL) for MIC (Staphylococcus aureus; MW2, resistant).
For Acinetobacter baumannii; broth microdilution; ATCC 19606: MIC read 4 µM (≈ 8.42 µg/mL).
Staphylococcus aureus; USA300, resistant — MIC: 4 µM (≈ 8.42 µg/mL).

Other studies, line by line
For NC1CC1c1ccc(NC(=O)c2cccc3ccccc23)cc1 (stereo not shown), the inhibition was 50% (Amine oxidase [flavin-containing] B (MAOB, Homo sapiens, UniProt P27338); enzyme activity, inhibitor, HRP-coupled; 100 µM, added: benzylamine substrate).
The Ki of CNc1ccccc1C(=O)O[C@H]1[C@@H](O)[C@H](n2cnc3c(N)ncnc32)O[C@@H]1COP(=O)(O)OP(=O)(O)O is reported as 0.79 ± 0.18 µM (ADCY5 (Canis lupus, UniProt P30803); adenylyl cyclase activity, inhibitor; Sf9 membranes; added: 5 mM MnCl2 100 µM forskolin).
With CCCCCc1cc(O)c2c(c1)OC(C)(C)[C@@H]1CCC(C)=C[C@@H]21 the inhibition was 40% (Cholecystokinin receptor type A (CCKAR, Homo sapiens, UniProt P32238); binding; 1 µM).
For C[C@@H]1O[C@@H](n2c3ccccc3c3c4c(c5c6ccccc6[nH]c5c32)CNC4=O)C[C@@H](N)[C@H]1O, the CC50 was > 100 µM (Calu-3; cytotoxicity, PrestoBlue; 48 h).
The IC50 of NC1CC1c1ccc(NC(=O)c2ccc3ccccc3c2)cc1 (stereo not shown) is reported as 9.4 ± 0.9 µM (NB-4 APL cells).

A few entries again (set 1):
It gave 4 µM (≈ 8.42 µg/mL) for MIC (Staphylococcus aureus; MW2, resistant).
